Measured values collected from several papers.
A part holds a random share of what one study measured.

Series 1 — technique: competition protein-binding microarray; form: double-stranded DNA, one strand shown; medium: in vitro; tested at: 2 µM; together with: Pho4 competitor, 0.05 µM; reading: higher = stronger binding
Target: Centromere-binding protein 1, full length, His-tagged (CBF1, Saccharomyces cerevisiae, UniProt P17106, residues 1-351)
Sequence of UniProt P17106 (whole entry, looked up): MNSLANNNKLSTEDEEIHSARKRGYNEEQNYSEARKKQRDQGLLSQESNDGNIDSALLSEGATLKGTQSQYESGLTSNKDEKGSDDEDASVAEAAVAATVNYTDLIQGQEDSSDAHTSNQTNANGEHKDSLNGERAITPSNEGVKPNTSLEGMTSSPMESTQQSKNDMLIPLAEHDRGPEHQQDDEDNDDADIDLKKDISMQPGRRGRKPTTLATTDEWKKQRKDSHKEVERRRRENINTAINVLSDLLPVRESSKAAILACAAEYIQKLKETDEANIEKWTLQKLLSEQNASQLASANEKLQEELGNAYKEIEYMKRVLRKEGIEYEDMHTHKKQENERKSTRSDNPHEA
Notes: whole 60-bp probe, lowest competitor level
Sequence | fluorescence intensity [a.u.]
TTATGACTGCGAATGTCCGTGCAATGCGGCCCAATTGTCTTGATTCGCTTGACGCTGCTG | 55.2
TCTTACAATGTTCCGCACGTTTATCAAAGTGTTACAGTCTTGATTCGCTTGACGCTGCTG | 124
GTCTTGTCTCATTGAAAGGTGGGTGTCCCCACTTCAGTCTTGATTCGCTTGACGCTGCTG | 73.4
TGCGCAACAACTTGGTAAGTGGGTGTATGTCTAGAAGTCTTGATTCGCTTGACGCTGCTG | 65.6
GTACAATAACATATGCACATGGCAACGGGTCTTGGTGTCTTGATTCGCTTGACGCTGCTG | 158
TGGTATAGCAATTTGCACGTTCACTGCCATTGACTTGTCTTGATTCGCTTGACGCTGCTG | 94
CTTCTGTAAATTTGTCACCGAACTTGACGCGCCCCGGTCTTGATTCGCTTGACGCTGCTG | 77.7
GCCACCAACAATACCTTCGTGGGACATAGTTAAGTCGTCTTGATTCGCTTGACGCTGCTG | 77.9
AAATTACTAAGTTGTCTGGTGGGTGACGCCGTATGAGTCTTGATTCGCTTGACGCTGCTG | 63.1
TTCTTTGGTCTTGGCCAGAGGTCCCAGAGTCGAAAAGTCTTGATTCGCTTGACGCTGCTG | 54.7

Series 2 — technique: RNA Bind-n-Seq; form: RNA; medium: in vitro; tested at: 365 nM; relative to: no-protein control; reading: higher = stronger binding
Target: RNA binding protein fox-1 homolog 2, RRM domain, GST-SBP tag (RBFOX2, Homo sapiens, UniProt O43251-10, residues 100-194)
Notes: natural RNA segment, single round, ends assumed
Residues (chain): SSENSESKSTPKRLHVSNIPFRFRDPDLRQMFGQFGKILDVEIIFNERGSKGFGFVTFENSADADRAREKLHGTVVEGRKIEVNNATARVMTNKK
Sequence | RBNS enrichment (R)
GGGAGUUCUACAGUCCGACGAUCGAUGAUGAUCCUAAUUACAUAAACACACACAUAUAUCUAGUGAUUUCUAAGGAUUUGUUUACUUUUUGUGUUCUGUUUUGCUGUAUUAAAAACUUGUCCUUUUCCUUAAAUGGAAUUCUCGGGUGCCAA | 0.25
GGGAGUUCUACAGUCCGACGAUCGGAGAUGAGAAGCUCUUGAUCCAAUCCCUGUGCAGCAUCAAGAAGCCCAGGAAGCUGGCCCAGGCCUGCUCCUCUGUGUUUCCCCAUGGGCAGCGAUAGAGGCCAAGUAUUGGAAUUCUCGGGUGCCAA | 0.241
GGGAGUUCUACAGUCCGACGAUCUGUACAGUGCUAUAGCUGAAGAGUAAUAGGCUAGGCUAUCUGUAUAGCCUAAGUGUGUAACAGGCUAUAUACAUAUCAUCAGGGUCUGUGUAAGUAUACUCUGUGAUGUUUGGAAUUCUCGGGUGCCAA | 0.628
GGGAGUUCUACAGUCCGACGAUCAACAGAGCGCCAGGCUUCACUCUGCAGAGAGAAAGUGCUCUGUCCCUGUAGCGUCUGAUUCCACUUACCAGACACCCACGCAUCUGCAGGAUGUCUGAUGCAGAGCGGUUUGGAAUUCUCGGGUGCCAA | 0.158
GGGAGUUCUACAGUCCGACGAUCGUUAACAAAGACAAACUGCUUCGAGUUUUCUGUUUUCGUAGUGAGCUUAAAAUGCAUGACAGGAUAGUUUCUCAUUCUUUGAAACAUUUUCAGUCUCAAACUUUCUGCAUUGGAAUUCUCGGGUGCCAA | 0.447
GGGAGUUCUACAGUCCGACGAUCUCAGACCUUGCCAGACAACCGAGUCCUGCAGGAUUCUGACUCAGAAGAUAAUCACAGACGUUAGUUAGAGUGUAUUUAUUUUUUUAAGUUACAAUAAAGUGCUCAGUCCUUGGAAUUCUCGGGUGCCAA | 0.33
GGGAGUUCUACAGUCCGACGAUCGGGUUUUAAUCCAGGACAUAAGCAGAAAUCGCUCUCUUUAGUGAAGGGAGCAGCUGAUUUUUUCAUUUUCUUGCCACAAGGCAUGUUGACAGAAGAAUAAAAUUCUUUGUUGGAAUUCUCGGGUGCCAA | 0.585
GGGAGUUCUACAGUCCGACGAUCCCAGAGAUGGUCAUGCACAGCCUCUUGAGACGCAUGUCACAAUGUCCUAUGACAGAGAAUGACUUAGAGCCACAGGCAUGAGUCCUUGAUAGGCAGGACUGAAAAACCAAUGGAAUUCUCGGGUGCCAA | 2.09

Series 3 — technique: RNA Bind-n-Seq; form: RNA; medium: in vitro; tested at: not given; notes: RNA with constant flanks, ends assumed; relative to: input RNA pool; reading: higher = stronger binding
Target: RING finger protein unkempt homolog, zinc fingers 1-6, GST-SBP tag (UNK, Homo sapiens, UniProt Q9C0B0, residues 30-357)
Sequence of UniProt Q9C0B0 (30-357, looked up): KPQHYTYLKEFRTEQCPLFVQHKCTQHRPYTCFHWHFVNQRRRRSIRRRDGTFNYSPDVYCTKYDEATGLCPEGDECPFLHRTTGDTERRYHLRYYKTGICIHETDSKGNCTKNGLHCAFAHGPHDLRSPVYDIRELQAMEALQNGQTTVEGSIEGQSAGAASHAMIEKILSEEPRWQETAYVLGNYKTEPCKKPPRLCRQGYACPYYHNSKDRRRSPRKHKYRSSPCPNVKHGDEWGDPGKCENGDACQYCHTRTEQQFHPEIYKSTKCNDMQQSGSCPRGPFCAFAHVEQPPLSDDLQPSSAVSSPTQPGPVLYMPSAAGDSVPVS
Sequence | bound/input enrichment [ratio]
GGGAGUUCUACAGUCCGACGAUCAGUAAACCUGGCAGCUAUAGAAUACACUAUGUGCAUUUAUAAUAGCUAUUUUAUAUAUUGCCGUAUCAACAUUUUUAAAUUAAAUGUUUUACAUUCACAAGUGGUGGGGAGUCUUGUCAUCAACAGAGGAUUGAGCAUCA | 0.822
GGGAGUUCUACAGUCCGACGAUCAGGCGCAAAGCAGCAAAUGUCACGUUACUCACCUCCCUGGUGGAAGGAGAAGCUGUUCACUCCGCCCGGGAUUUUGGGUACAUUUGCGAAACGGAGUUUCCCGCCAAAGCCGUCUCUGAGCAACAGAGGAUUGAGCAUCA | 0.0641
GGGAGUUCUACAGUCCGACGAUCUCAGAACACAAAAUCUUAUUUCUUGGAGCAGGAGAAGCUGCACUUGGAAUUGCCAAUCUCACCGUUCUAUCAAUGGUGGAAAGUGGUCUCUCAGAAGAGGAGGCGCAGAGAAAGAUCUGGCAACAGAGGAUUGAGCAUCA | 0.194
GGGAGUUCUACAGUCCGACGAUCGAUGAAGUGGAGAAGUACAACCGAAAUGGAGUCAAUGCUCUGCAGCUGGAUCCAGCACUAAACCGACUUUUCACAGCCGGUCGAGACUCUAUCAUAAGAAUAUGGAGUGUCAAUCAGCACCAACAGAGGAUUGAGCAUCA | 0.114
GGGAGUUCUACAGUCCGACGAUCCCAGCCCCAGUGCCAUCCAGGAGAAACCCCCCUGGCGGCAAGUCCAGCCUGGUCUUGGGUCCGCUUCUUGUGUUGGAACUCUGUCCUUCUGUCUGUCUGUUUGUUGUCCCAUGCUUGGGACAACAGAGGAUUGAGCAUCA | 0.336
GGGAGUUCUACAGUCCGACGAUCGUAAAACUGGUACUUCCAAAGACCAAGUUUUCAAUGGUAUUACCAGAAGUAGAAGCGGCAUCCGCAGAGAUUCCCGGAGUCAGGAGUGUUGUAUUAUUUGGAGUAGAAACUCAUGUGUGCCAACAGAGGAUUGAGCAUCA | 0.517
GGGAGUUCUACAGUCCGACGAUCGUUGUUCUUGUAGUGUUUGUUGCUAUUGUUAGAAAGAUUAUUAGUGAUAUGUGGGGUGUCUCCGCUAAACAACAGACACAUGUAAGAAAACACCAGUUUGAUCAUGGAGAGCUGGUUUACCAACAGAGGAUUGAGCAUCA | 7.4

Other studies, line by line
Molecule | target | assay | test system | conditions | how to read | quantity | result
PhoQ, residues 284 288 289 292 302 303 TAVSDG | PhoP, residues 12 14 15 18 19 LHHVQ (Escherichia coli, UniProt P23836) | Sort-seq, refers to: YFP reporter | E. coli | PhoQ-PhoP variant library, together with: 10 µM Mg2+ | relative to: high Mg2+ state, higher = stronger signaling | fold induction | 0.942

Repeated from above (series 1):
Sequence | fluorescence intensity [a.u.]
TTATGACTGCGAATGTCCGTGCAATGCGGCCCAATTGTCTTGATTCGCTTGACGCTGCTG | 55.2
TTCTTTGGTCTTGGCCAGAGGTCCCAGAGTCGAAAAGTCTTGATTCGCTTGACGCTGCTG | 54.7
TCTTACAATGTTCCGCACGTTTATCAAAGTGTTACAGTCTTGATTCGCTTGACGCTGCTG | 124
GTCTTGTCTCATTGAAAGGTGGGTGTCCCCACTTCAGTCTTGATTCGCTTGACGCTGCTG | 73.4
